Experimental data from different studies.
Every numbered part comes from another study and shows a few of its results, in no order. Changes are numbered by the printed parent chain.

Sample 1 — target: CCNE2, cyclin fold, Cln2 fusion (human); method: yeast growth competition, sequencing; sample: yeast; notes: weak parent motif; reference: not given; direction: higher = stronger binding
Parent: MASTL docking peptide (human); PMIAKNLMCELDE; partner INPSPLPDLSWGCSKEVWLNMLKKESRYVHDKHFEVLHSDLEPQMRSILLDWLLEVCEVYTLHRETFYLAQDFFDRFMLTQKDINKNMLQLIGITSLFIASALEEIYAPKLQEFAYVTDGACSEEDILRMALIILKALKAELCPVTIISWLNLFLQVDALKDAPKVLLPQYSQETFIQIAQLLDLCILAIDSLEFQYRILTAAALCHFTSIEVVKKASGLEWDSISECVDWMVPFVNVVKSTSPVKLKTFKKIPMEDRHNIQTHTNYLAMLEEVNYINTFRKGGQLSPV
Change | normalised enrichment score
L11E | -0.122
L11G | 0.0132
A4C | 0.0718
L11W | 0.138
I3V | -0.277
L7F | -0.0161
M2T | 0.122
C9T | 0.231
L7D | -0.331
K5Y | -0.398
L11Q | 0.166
M2H | -0.186
I3F | -0.118

Sample 2 — method: protein binding microarray; molecule type: double-stranded DNA, one strand shown; sample: in vitro; concentration: not given; reference: not given; direction: higher = stronger binding
Target: Histone acetyltransferase KAT6A, both winged helices, GST fusion (KAT6A, Homo sapiens, UniProt Q92794, residues 1-181)
Notes: 8-mer, flanks averaged, mean of 2 arrays, mostly near background
Residues (chain): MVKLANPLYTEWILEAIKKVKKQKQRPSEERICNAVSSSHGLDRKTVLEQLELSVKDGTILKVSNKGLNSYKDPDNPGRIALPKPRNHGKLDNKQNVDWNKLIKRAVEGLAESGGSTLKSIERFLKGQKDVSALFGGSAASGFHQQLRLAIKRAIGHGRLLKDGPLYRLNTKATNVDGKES
Strand | E-score
GTCCTTAA | -0.0608
CATCATAA | -0.0861
AGCTATGG | -0.184
GTTTTTAA | 0.0499
AAGGTGGT | -0.138
CACCATCG | -0.12
AAGCTCCG | 0.189
CTTTGCGC | 0.218
TGACCAAA | -0.0623
CACGAAAA | -0.0732
AACCCGCC | 0.306
GGGAGCTA | -0.0846
CGAATGGC | 0.00331
GTCATCCA | -0.154
CTAAGGAC | -0.0535
ATGGGACC | -0.17
CACTTCTC | -0.216
CACTTCTA | -0.181
GAGTCTGA | -0.129
AACGTGAT | 0.0138
TCCTCAGA | -0.103
GCAGCGAA | 0.0253

Sample 3 — method: RNA Bind-n-Seq; molecule type: RNA; sample: in vitro; concentration: 365 nM; reference: no-protein control; direction: higher = stronger binding
Target: RNA binding protein fox-1 homolog 2, RRM domain, GST-SBP tag (RBFOX2, Homo sapiens, UniProt O43251-10, residues 100-194)
Notes: natural RNA segment, single round, ends assumed
Construct (chain): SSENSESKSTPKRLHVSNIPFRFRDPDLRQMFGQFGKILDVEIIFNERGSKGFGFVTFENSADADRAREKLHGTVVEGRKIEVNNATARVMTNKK
Strand | RBNS enrichment (R)
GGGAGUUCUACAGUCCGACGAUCAGAGCUGAUUUGAGGCCUCCUUCUGGGGCUGGGCUCUGCAGGCCAGGUGGGUGUGGCCUGUGUUUUCCCUUCUGUUCUUUCUGCCUGUACUGGAUCUGUUAUUUUCAGGGUGGAAUUCUCGGGUGCCAA | 0.753
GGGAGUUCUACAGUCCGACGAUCGAACGGGACUGAAUUUGAUCACCAGCCCCACAAACCAUUCUCAAUGGUCAAUGGUUGUAAUCCCAGCACUACAAGGCAGGAAGAUCAUAAGUUCAAGGUCAUUCUUAUCUUGGAAUUCUCGGGUGCCAA | 0.249
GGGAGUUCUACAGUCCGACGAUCUCCAUUGUCCCGAUCCAGCUAUCACCCAGGGGUCCAUACAUUUUCUUCAUGUUUCUUCUUUGUAUAUUUGGUGACUGUAUUGUCAUAGAUGUACAUAUCGUGUCGGUAGGUGGAAUUCUCGGGUGCCAA | 0.573
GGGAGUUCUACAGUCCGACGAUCGGCCUUCUCAGGCCUGGCCCUUUUCAUCAGAUACAAGGGCCAGGAGACCAGACUCUUGCUUCUGAUCUUCCUUCAGCCCUCAGUGUGGGAAUAAAUUAAGUUUCUCAACAUGGAAUUCUCGGGUGCCAA | 0.225
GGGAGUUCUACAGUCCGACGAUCUCACAGUAAGGCUGAACUCUGAAAACUAUCCAUUAGAGCUCUGGUUCUGGGUGGGGAUAAGGAUGGGAGGAGAAAGGUUGAGACCUUGGUCUGGCUGUACUGGCAACGCGUGGAAUUCUCGGGUGCCAA | 0.521
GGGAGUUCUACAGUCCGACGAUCACUUACAAAUAAUGGGCUCUGAUUGGGCAAUACUCAUUUGAGUUCCUUCCAUUUGACCUAAUUUAACUGGUGAAAUUUAAAGUGAAUUCAUGGGCUCAUCUUUAAAGCUUUGGAAUUCUCGGGUGCCAA | 0.311
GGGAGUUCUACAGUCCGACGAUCGUAGCCUAAGUAGGUCGUGGCAAGGGCCUGAGGCCUGUUCCUCACAGGCUUCCAGGUUAGGCACUGUGAAUAGGCUCAGCUCCUCUAGAGAGCUGAAGCCAUCUGGUUCUUGGAAUUCUCGGGUGCCAA | 0.382
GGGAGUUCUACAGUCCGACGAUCGCCAACAUUUAAAAAAGUAUGAAAAUGAUUUAUUUUUAUAUGAUGUAUACCCAUAAAGAAUGCUCAUAUUAAUGUACUUAAAUUACACAUGUAGAGCAUAUCUGUUAUAUUGGAAUUCUCGGGUGCCAA | 0.578
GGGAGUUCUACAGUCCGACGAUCCUGCAUACCCACCGCCCAGCUUCUCCCUGAGGGCCCACCAGCCUGUGCUGUACACCCCGUUAGUCCCUGAUCCCAACCUUCUCCCUCCUGCCAGCACACCGAUGCACACAUGGAAUUCUCGGGUGCCAA | 3.29
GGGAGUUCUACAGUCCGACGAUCAAUGAACUUGAGACGCUUCAGCAAAGGCAGCAUUGGUCACGGAGUUCAAGGGAAUAGAUGAGUAAGCAACGUUUCAAAUUUGGGAUGAAAAGACUGCCAAACUAUUGGCUUGGAAUUCUCGGGUGCCAA | 0.957
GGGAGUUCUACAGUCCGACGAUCAAACAACCACAGAAACAUCUCUCCUUUGUGUAUUUUUCCCUCCCCCACCUUUCACCCCACAGUGGUUUUCAAUUAGUAUUUAUUCCAUGGUGGAGUCUGUGAGGCUAGAAUGGAAUUCUCGGGUGCCAA | 0.815
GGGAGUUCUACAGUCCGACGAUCUGAAGCUUGGAAACACAGCUGGGAAGUUUGUAUUCAUUUACUUAGUAGAUAUGUGCAGAGCUCCUUGUGUAUGUCUGUGACUGGUUAGACCCCACGCCCCUCACUGAGCUUGGAAUUCUCGGGUGCCAA | 0.324

Other studies, line by line
Molecule | target | assay | test system | conditions | how to read | measurement | result
PhoQ, residues 284 288 289 292 302 303 QWQEDG | PhoP, residues 12 14 15 18 19 LWHSL (Escherichia coli, UniProt P23836) | Sort-seq, item: YFP reporter | E. coli | PhoQ-PhoP variant library, added: 10 µM Mg2+ | reference: high Mg2+ state, higher = stronger signaling | fold induction | 16.1

A few entries again (sample 3):
Strand | RBNS enrichment (R)
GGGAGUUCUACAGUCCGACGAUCAAUGAACUUGAGACGCUUCAGCAAAGGCAGCAUUGGUCACGGAGUUCAAGGGAAUAGAUGAGUAAGCAACGUUUCAAAUUUGGGAUGAAAAGACUGCCAAACUAUUGGCUUGGAAUUCUCGGGUGCCAA | 0.957
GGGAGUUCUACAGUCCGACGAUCGCCAACAUUUAAAAAAGUAUGAAAAUGAUUUAUUUUUAUAUGAUGUAUACCCAUAAAGAAUGCUCAUAUUAAUGUACUUAAAUUACACAUGUAGAGCAUAUCUGUUAUAUUGGAAUUCUCGGGUGCCAA | 0.578
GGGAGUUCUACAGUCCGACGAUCGGCCUUCUCAGGCCUGGCCCUUUUCAUCAGAUACAAGGGCCAGGAGACCAGACUCUUGCUUCUGAUCUUCCUUCAGCCCUCAGUGUGGGAAUAAAUUAAGUUUCUCAACAUGGAAUUCUCGGGUGCCAA | 0.225
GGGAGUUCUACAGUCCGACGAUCUGAAGCUUGGAAACACAGCUGGGAAGUUUGUAUUCAUUUACUUAGUAGAUAUGUGCAGAGCUCCUUGUGUAUGUCUGUGACUGGUUAGACCCCACGCCCCUCACUGAGCUUGGAAUUCUCGGGUGCCAA | 0.324
